# Experimental data pooled from the literature.
# Each line is one published result; not all experiments were run side by side. ± gives the spread as reported.
SMILES,assay,test system,conditions,quantity,value
CC[C@H](C)[C@H](NC(=O)[C@H](CCCCN)NC(=O)CNC(=O)[C@H](CC(C)C)NC(=O)[C@H](Cc1ccccc1)NC(=O)[C@H](CCCCN)NC(=O)[C@H](CO)NC(=O)[C@H](Cc1ccccc1)NC(=O)[C@H](Cc1c[nH]c2ccccc12)NC(=O)[C@H](CCC(N)=O)NC(=O)[C@@H](NC(=O)[C@H](Cc1ccccc1)NC(=O)CCCCCNC(=O)CN1CCN(CC(=O)O)CCN(CC(=O)O)CCN(CC(=O)O)CC1)C(C)C)C(=O)N[C@@H](CCC(=O)O)C(=O)N1CCC[C@H]1C(=O)N[C@@H](CC(=O)O)C(=O)N[C@H](C(=O)N[C@@H](CO)C(=O)N[C@@H](CCC(N)=O)C(=O)N[C@H](C(=O)N[C@@H](CCC(N)=O)C(=O)N[C@@H](CC(=O)O)C(=O)N1CCC[C@H]1C(=O)N[C@@H](CC(N)=O)C(=O)N[C@@H](CC(=O)O)C(=O)N[C@@H](CCC(N)=O)C(=O)N[C@@H](Cc1ccc(O)cc1)C(=O)N[C@@H](CCC(=O)O)C(=O)N1CCC[C@H]1C(=O)N[C@@H](Cc1ccccc1)C(=O)O)C(C)C)C(C)C [copper-64 labelled],,"C57BL/6 mice, male, tumour-free, pancreas",4 h,tissue uptake,1.49 ± 0.2 %ID/g
CC(C)C[C@@H](NC(=O)[C@@H](CCCNC(=N)N)NC(=O)[C@@H](Cc1c[nH]cn1)NC(=O)[C@@H](Cc1c[nH]c2ccccc12)NC(=O)[C@@H](Cc1c[nH]cn1)NC(=O)[C@@H](Cc1ccccc1)NC(=O)[C@H](NC(=O)[C@@H](Cc1ccc(O)cc1)NC(=O)CNC(=O)CNC(=O)CCOCCOCCOCCNC(=O)CN1CCN(CC(=O)O)CCN(CC(=O)O)CC1)[C@H](C)O)C(=O)N[C@H](CC(N)=O)C(=O)N1CCC[C@@H]1C(=O)O [gallium-68 labelled],,"C57BL/6 mice, male, spleen","intravenous, 1.85 MBq, 60 min, added: GP12 blocking",tissue uptake,1.79 ± 0.39 %ID/g
CC[C@H](C)[C@H](NC(=O)[C@H](CCCNC(=N)N)NC(=O)[C@H](CCCCN)NC(=O)[C@H](Cc1ccc(O)cc1)NC(=O)[C@H](CC(=O)O)NC(=O)[C@H](C)NC(=O)CNC(=O)CCOCCOCCOCCNC(=O)CN1CCN(CC(=O)O)CCN(CC(=O)O)CCN(CC(=O)O)CC1)C(=O)N[C@H](C(=O)N[C@@H](CC(C)C)C(=O)N[C@@H](CCCCN)C(=O)N[C@H](C(=O)N[C@@H](CC(N)=O)C(N)=O)C(C)C)[C@@H](C)O [copper-64 labelled],ex vivo gamma counting,"C57BL/6J male mice, B16-F10 tumour, testis","intravenous, 1.85 MBq, 20 min",tissue uptake,1.09 ± 0.454 %ID/g
CSCC[C@H](NC(=O)CNC(=O)[C@H](CCCCN)NC(=O)[C@H](CC(C)C)NC(=O)[C@@H]1CCCN1C(=O)[C@H](CO)NC(=O)[C@H](Cc1c[nH]cn1)NC(=O)[C@H](Cc1c[nH]c2ccccc12)NC(=O)[C@H](CCCNC(=N)N)NC(=O)[C@H](CC(C)C)NC(=O)[C@H](CCCNC(=N)N)NC(=O)[C@H](Cc1c[nH]c2ccccc12)NC(=O)[C@H](CS)NC(=O)CCCCCNC(=O)CN1CCN(CC(=O)O)CCN(CC(=O)O)CCN(CC(=O)O)CC1)C(=O)O [copper-64 labelled],ex vivo biodistribution,"C57BL/6J mice bearing B16-F10 tumours, heart","intravenous, 1.85 MBq, 2 h",tissue uptake,2.09 %ID/g
CC[C@H](C)[C@H](NC(=O)[C@H](CCCNC(=N)N)NC(=O)[C@H](CCCCN)NC(=O)[C@H](Cc1ccc(O)cc1)NC(=O)[C@H](CC(=O)O)NC(=O)[C@H](C)NC(=O)CNC(=O)CCOCCOCCOCCNC(=O)CN1CCN(CC(=O)O)CCN(CC(=O)O)CCN(CC(=O)O)CC1)C(=O)N[C@H](C(=O)N[C@H](C(=O)N[C@@H](CCCCN)C(=O)N[C@H](C(=O)N[C@@H](CC(N)=O)C(N)=O)C(C)C)C(C)C)[C@@H](C)O [copper-64 labelled],ex vivo gamma counting,"C57BL/6J male mice, B16-F10 tumour, kidney","intravenous, 1.85 MBq, 20 min",tissue uptake,12.5 ± 0.542 %ID/g
C[C@H](O)[C@@H](NC(=O)[C@H]1CCCN1C(=O)[C@@H](CCCCN)NC(=O)[C@@H](CO)NC(=O)[C@@H](Cc1ccc(O)cc1)NC(=O)[C@@H](CC(N)=O)NC(=O)CCOCCOCCOCCNC(=O)CN1CCN(CC(=O)O)CCN(CC(=O)O)CCN(CC(=O)O)CC1)C(=O)N[C@H](CC(=O)O)C(=O)N[C@H](CCCNC(=N)N)C(=O)N[C@H](CCC(N)=O)C(=O)N[C@H](Cc1ccc(O)cc1)C(=O)N[C@H](Cc1c[nH]cn1)C(=O)N[C@H](Cc1ccccc1)C(N)=O [gallium-68 labelled],,"BALB/c nude mice U-87 MG tumour, tumor","intravenous, 1.85 MBq, 0.08333 h, radiolabelled",tissue uptake,4.5 ± 0.32 %ID/g
CCCC[C@H]1C(=O)N(C)[C@@H](CCCC)C(=O)N[C@@H](CCCNC(=O)CN2CCN(CC(=O)O)CCN(CC(=O)O)CCN(CC(=O)O)CC2)C(=O)N[C@H](C(=O)NCC(N)=O)CSCC(=O)N[C@@H](Cc2ccc(O)cc2)C(=O)N(C)[C@@H](C)C(=O)N[C@@H](CC(N)=O)C(=O)N2CCC[C@H]2C(=O)N[C@@H](Cc2c[nH]cn2)C(=O)N[C@@H](CC(C)C)C(=O)N(C)CC(=O)N[C@@H](Cc2c[nH]c3ccccc23)C(=O)N[C@@H](CO)C(=O)N[C@@H](Cc2c[nH]c3ccccc23)C(=O)N1C [gallium-68 labelled],,"NOD/SCID mice with CHO-hPD-L1 xenograft, kidney",120 min post injection,tissue uptake,42.1 ± 13.9 %ID/g
COc1cccc(O)c1C(=O)/C=C/c1ccc2cc(N3CCCC3)ccc2c1,,"C57BL/6J mice, kidney","intraperitoneal, 50 mg/kg single, 2 h",tissue concentration,94.4 ng/g

# Some of these lines once more:
SMILES,assay,test system,conditions,quantity,value
CC[C@H](C)[C@H](NC(=O)[C@H](CCCNC(=N)N)NC(=O)[C@H](CCCCN)NC(=O)[C@H](Cc1ccc(O)cc1)NC(=O)[C@H](CC(=O)O)NC(=O)[C@H](C)NC(=O)CNC(=O)CCOCCOCCOCCNC(=O)CN1CCN(CC(=O)O)CCN(CC(=O)O)CCN(CC(=O)O)CC1)C(=O)N[C@H](C(=O)N[C@H](C(=O)N[C@@H](CCCCN)C(=O)N[C@H](C(=O)N[C@@H](CC(N)=O)C(N)=O)C(C)C)C(C)C)[C@@H](C)O [copper-64 labelled],ex vivo gamma counting,"C57BL/6J male mice, B16-F10 tumour, kidney","intravenous, 1.85 MBq, 20 min",tissue uptake,12.5 ± 0.542 %ID/g
